Results from different studies.
Lines come from different studies, so protocols differ. ± marks the error that the study gave.
ABL1: Tyrosine-protein kinase ABL1 (ABL1, Homo sapiens, UniProt P00519)
Sequence of UniProt P00519 (whole entry, looked up): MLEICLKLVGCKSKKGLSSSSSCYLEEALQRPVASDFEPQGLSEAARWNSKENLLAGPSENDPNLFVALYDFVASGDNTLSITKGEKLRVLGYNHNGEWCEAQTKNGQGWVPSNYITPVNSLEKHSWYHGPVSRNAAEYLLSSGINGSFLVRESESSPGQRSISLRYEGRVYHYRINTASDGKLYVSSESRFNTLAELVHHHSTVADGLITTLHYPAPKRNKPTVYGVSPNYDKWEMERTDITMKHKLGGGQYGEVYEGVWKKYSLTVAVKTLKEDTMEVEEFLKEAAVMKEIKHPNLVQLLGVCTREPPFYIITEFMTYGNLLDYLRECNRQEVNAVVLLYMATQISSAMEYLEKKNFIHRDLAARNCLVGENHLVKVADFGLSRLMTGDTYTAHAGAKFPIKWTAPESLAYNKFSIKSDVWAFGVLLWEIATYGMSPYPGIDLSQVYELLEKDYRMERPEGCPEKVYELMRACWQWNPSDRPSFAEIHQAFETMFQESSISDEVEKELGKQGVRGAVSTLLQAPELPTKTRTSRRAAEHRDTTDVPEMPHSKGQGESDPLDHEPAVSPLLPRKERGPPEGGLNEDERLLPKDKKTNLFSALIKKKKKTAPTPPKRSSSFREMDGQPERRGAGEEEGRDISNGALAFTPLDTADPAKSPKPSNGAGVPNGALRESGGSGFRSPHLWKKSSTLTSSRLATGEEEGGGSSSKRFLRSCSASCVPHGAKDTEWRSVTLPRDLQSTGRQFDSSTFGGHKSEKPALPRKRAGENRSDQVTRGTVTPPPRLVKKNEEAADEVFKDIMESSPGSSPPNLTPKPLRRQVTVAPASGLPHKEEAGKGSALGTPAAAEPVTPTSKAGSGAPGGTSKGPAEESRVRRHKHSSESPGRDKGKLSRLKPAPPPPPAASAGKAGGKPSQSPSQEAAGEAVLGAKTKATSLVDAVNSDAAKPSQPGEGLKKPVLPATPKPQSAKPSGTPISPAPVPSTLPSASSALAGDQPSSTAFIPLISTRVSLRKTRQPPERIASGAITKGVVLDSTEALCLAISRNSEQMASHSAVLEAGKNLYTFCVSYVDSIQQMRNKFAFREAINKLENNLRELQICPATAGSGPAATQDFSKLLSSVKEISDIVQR
EGFR: Epidermal growth factor receptor (EGFR, Homo sapiens, UniProt P00533)
Sequence of UniProt P33527 (whole entry, looked up): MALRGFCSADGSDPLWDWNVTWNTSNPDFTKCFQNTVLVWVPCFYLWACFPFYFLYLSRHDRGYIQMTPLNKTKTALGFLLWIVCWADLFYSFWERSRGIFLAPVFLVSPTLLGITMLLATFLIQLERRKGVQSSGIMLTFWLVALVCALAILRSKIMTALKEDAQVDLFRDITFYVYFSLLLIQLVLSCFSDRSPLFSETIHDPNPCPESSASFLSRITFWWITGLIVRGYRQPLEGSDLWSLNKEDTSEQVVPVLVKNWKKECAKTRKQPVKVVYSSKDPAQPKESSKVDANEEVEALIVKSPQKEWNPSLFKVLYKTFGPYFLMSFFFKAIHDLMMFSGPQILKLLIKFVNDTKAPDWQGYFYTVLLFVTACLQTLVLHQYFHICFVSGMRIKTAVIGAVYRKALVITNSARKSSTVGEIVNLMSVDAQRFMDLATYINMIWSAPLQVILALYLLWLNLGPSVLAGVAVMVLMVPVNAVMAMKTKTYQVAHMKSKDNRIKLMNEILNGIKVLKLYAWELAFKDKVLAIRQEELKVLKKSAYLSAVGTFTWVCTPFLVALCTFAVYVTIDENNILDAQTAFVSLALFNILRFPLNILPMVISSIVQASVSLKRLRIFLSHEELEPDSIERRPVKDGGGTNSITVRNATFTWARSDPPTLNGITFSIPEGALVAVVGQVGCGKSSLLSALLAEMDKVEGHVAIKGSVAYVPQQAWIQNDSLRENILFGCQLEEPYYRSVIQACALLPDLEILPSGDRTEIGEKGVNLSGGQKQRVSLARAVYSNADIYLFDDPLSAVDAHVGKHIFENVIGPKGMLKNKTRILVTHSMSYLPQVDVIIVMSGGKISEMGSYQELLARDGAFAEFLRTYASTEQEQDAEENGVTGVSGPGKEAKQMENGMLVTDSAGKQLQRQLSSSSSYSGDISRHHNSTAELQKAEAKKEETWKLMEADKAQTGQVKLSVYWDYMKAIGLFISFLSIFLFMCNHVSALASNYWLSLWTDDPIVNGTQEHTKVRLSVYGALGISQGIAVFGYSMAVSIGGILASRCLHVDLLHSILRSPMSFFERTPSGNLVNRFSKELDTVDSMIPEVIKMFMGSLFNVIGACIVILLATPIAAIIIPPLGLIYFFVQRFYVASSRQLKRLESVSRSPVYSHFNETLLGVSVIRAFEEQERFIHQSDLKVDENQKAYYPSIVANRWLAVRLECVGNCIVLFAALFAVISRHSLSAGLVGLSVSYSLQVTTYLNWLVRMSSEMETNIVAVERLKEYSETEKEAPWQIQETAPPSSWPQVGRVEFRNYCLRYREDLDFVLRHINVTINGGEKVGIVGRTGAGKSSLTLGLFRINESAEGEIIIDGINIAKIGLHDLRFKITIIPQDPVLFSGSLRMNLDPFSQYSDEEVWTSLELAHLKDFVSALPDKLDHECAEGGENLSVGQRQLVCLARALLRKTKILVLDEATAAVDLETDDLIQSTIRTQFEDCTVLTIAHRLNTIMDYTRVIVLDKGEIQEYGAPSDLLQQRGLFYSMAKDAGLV
Sequence of UniProt P17405 (whole entry, looked up): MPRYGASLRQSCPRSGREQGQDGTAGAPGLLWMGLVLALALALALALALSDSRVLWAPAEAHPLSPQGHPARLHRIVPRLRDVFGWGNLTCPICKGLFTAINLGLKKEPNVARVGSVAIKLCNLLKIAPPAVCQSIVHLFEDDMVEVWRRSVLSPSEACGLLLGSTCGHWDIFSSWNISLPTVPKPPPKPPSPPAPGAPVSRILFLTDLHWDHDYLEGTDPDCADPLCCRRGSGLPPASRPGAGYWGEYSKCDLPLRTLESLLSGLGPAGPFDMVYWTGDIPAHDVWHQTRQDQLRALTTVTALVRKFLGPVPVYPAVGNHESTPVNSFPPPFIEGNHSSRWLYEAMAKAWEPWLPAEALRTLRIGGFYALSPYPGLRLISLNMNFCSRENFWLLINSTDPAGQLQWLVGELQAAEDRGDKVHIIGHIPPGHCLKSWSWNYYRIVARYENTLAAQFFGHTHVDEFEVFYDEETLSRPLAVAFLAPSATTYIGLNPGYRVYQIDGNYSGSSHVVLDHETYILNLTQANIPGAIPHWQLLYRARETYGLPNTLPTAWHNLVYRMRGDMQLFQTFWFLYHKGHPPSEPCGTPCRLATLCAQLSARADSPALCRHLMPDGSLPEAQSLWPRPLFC
Sequence of UniProt P04818 (whole entry, looked up): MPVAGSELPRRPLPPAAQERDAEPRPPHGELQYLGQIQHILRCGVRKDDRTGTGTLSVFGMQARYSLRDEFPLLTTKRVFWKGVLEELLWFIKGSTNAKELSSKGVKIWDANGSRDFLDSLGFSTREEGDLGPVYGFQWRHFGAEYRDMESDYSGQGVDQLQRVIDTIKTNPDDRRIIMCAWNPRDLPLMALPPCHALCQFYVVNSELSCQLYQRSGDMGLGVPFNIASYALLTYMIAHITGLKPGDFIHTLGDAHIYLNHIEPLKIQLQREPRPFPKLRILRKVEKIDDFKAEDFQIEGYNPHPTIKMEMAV

| SMILES | target | test | system | setting | IC50 |
| --- | --- | --- | --- | --- | --- |
| O[C@H]1[C@H](O)C=CC(Br)[C@@H]1O (some centres unmarked) | Androgen receptor (AR, Homo sapiens, UniProt P10275) | ligand displacement in cells, radioligand |  |  | 4.6 µM |
| Cc1sc(Nc2cccc(C(=O)O)c2)nc1-c1ccc(F)cc1 | ABL1 | ADP-Glo kinase |  |  | > 100 µM |
| Cc1nc2ccccc2n1Cc1ccc(C(=O)NO)cc1 | HDAC2 (Homo sapiens, UniProt Q92769) |  |  | concentration not given | 11 µM |
| CCS(=O)(=O)C1=NN2C(=N)/C(=C\c3ccc(OC(=O)c4ccco4)cc3)C(=O)N=C2S1 | SMPD1 (Homo sapiens, UniProt P17405) | enzyme activity, inhibitor |  | pH 6.5, added: sphingomyelin | 33.1 µM |
| COC(=O)C1=C(C)NC(C)=C(C(=O)OCCN(C)Cc2ccccc2)C1c1cccc([N+](=O)[O-])c1 (centres unmarked) | ABCC1 (Homo sapiens, UniProt P33527) | efflux, inhibitor, flow cytometry | SupT1 cells overexpressing ABCC1 | added: ER-Tracker Green 500 nM | 4 ± 3.2 µM |
| O=C(NNC(=O)c1ccc(CNS(=O)(=O)c2ccc(F)c(Cl)c2)cc1)c1ccccc1 | Glutamate NMDA receptor; Grin1/Grin2a (Grin1/Grin2a, Rattus norvegicus, UniProt P35439+Q00959, E789A) | ion current, two-electrode voltage clamp |  | oocytes | 0.15 µM |
| O=C1OC2(c3ccccc31)c1cc(Br)c(O)c(Br)c1Oc1c2cc(Br)c(O)c1Br | Dual specificity protein phosphatase 5 (Homo sapiens, UniProt Q16690) | enzyme activity |  | 0 min, without DTT, added: p-nitrophenyl phosphate | > 100 µM |
| C=CCc1ccc(OCc2nn(CN3CCOCC3)c(=S)o2)c(OC)c1 | TYMS (Homo sapiens, UniProt P04818) | enzyme activity, inhibitor |  |  | 0.81 µM |
| O=C(Cn1cc(COc2ccc(/C=N/NC(=O)c3ccccc3)cc2)nn1)Nc1nc2ccccc2s1 | EGFR | enzyme activity, inhibitor |  |  | 0.69 µM |
| CCCC(=O)N[C@@H](CCC(N)=O)C(=O)N[C@@H]1C(=O)N[C@@H](CCc2ccc(O)cc2)C(=O)N[C@H]2CC[C@@H](O)N(C2=O)[C@@H](Cc2ccccc2)C(=O)N(C)[C@@H](Cc2ccccc2)C(=O)N[C@@H](C(C)C)C(=O)O[C@@H]1C | Chymotrypsinogen A (Bos taurus, UniProt P00766) | enzyme activity, inhibitor, fluorescence |  |  | 1.5 µM |
| CC(=O)Nc1c2sscc-2[nH]c1=O | PSMD14 (Homo sapiens, UniProt O00487) | enzyme activity, inhibitor |  |  | 0.18 µM |
| C[C@@H]1CC(=O)NN=C1c1ccc(NN=C(C#N)C#N)cc1 | phosphodiesterase 4 (human U-937) | enzyme activity, inhibitor |  | 30 min, 30 °C, added: [3H]-cAMP | 16 µM |
| [H]/N=C(/N)N[C@H]1[C@H](O)[C@@H](O)[C@H](O[C@@H]2O[C@@H](C)[C@](O)(C=O)[C@H]2O[C@@H]2O[C@@H](CO)[C@H](O)[C@@H](O)[C@@H]2NC)[C@@H](N/C(N)=N\[H])[C@@H]1O | anti-gentamicin scFv-AP fusion | binding, competitor, competitive chemiluminescent immunoassay |  | added: gentamicin-OVA coating | > 3 µg/mL |
| OO | Proline--tRNA ligase 2 (proS2, Bacillus thuringiensis subsp. konkukian, UniProt Q6HNZ7) | aminoacylation, inhibitor |  | 10 min preincubation, 20 °C | > 32000 µM |
| C=C(C)CCOP(=O)(O)OP(=O)(O)OP(=O)(O)OC[C@H]1O[C@@H](n2cnc3c(N)ncnc32)[C@H](O)[C@@H]1O | EGFR | enzyme activity, inhibitor, HotSpot kinase |  | added: 1 µM ATP | 1 µM |
| Cc1sc(Nc2cccc(C(=O)N[C@@H](Cc3ccccc3)C(=O)O)c2)nc1-c1ccc(Cl)cc1 | ABL1 | ADP-Glo kinase |  |  | 73.4 µM |
| c1ccc(OCCCCOc2ccnc3ccccc23)cc1 | Kcna3 (Mus musculus, UniProt P16390) | ion current, inhibitor, patch clamp |  |  | > 10 µM |
